{"data": "Assay results from different studies", "note": "A part holds a random share of what one study measured. ± marks the error that the study gave.", "sequence of UniProt Q86U86 (whole entry, unmodified, looked up)": "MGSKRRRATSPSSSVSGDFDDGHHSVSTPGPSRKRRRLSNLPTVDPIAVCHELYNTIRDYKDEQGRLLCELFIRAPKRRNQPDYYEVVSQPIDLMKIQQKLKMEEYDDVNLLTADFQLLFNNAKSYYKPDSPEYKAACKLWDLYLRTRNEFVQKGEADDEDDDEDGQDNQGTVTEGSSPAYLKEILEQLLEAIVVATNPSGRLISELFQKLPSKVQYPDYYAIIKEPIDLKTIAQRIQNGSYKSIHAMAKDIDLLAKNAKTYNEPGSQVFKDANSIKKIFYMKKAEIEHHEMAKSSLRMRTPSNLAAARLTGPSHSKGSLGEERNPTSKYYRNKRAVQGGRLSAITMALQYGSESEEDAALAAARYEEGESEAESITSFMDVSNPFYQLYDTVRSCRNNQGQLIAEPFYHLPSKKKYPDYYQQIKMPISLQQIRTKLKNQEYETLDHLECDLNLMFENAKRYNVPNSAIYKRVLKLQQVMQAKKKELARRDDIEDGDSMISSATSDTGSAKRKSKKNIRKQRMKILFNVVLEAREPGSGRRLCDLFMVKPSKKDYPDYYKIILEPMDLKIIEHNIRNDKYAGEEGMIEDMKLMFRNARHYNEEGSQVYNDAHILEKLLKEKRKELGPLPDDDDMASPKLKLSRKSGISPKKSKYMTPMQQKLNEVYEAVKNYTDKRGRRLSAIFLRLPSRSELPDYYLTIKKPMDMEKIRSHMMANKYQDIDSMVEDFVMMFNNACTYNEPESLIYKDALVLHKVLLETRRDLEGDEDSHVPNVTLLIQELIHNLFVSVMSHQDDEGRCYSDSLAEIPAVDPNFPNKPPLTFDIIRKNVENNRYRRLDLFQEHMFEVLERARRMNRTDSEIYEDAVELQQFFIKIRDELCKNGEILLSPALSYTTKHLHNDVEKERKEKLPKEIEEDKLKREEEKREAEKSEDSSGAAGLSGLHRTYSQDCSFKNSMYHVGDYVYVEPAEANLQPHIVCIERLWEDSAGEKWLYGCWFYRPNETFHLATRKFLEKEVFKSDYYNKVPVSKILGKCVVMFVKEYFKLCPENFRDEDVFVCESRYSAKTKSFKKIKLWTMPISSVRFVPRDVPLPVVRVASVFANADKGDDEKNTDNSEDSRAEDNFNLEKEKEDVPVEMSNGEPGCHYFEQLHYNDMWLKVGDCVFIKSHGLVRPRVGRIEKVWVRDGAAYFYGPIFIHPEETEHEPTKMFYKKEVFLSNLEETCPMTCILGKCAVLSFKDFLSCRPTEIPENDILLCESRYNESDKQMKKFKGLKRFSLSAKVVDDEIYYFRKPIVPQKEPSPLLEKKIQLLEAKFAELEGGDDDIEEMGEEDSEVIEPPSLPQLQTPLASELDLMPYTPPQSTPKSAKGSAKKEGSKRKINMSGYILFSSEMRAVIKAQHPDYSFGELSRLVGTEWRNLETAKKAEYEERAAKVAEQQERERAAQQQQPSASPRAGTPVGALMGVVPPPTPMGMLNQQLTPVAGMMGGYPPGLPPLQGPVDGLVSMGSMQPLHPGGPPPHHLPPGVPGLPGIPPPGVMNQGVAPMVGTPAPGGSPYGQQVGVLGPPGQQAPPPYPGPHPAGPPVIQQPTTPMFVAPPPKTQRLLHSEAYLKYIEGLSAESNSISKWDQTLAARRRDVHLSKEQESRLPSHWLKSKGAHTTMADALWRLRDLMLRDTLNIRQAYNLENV", "sequence of UniProt P34914 (whole entry, looked up)": "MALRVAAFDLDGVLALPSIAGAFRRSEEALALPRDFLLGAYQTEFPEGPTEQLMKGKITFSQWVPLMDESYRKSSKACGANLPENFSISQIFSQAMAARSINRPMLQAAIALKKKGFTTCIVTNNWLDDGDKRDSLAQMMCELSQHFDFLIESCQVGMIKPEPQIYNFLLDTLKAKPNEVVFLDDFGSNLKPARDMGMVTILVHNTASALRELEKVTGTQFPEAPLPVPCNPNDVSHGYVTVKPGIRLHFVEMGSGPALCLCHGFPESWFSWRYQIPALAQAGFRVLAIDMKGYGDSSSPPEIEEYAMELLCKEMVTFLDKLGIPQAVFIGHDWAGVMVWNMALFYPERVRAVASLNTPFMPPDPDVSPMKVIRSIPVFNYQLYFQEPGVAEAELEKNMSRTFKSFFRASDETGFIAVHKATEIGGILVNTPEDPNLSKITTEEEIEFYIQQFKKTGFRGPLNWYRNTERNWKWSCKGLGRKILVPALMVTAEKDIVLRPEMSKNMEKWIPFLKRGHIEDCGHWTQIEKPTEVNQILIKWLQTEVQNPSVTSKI"}
{"data": "Set 1", "Structure (SMILES)": "Cc1cc(OCc2nnc(SC3CCCC3)n2-c2cccnc2)ccc1-c1ccc(S(C)(=O)=O)cc1"}
{"cell line": "MCF7", "CC50 [µM]": "> 100"}
{"cell line": "OVCAR-3", "CC50 [µM]": 6.93}
{"cell line": "A498", "CC50 [µM]": 4.47}
{"data": "Other studies, line by line"}
{"Structure (SMILES)": "CC[C@@H]1C(=O)N(C)c2cnc(Nc3ccc(C(=O)NC4CCN(C)CC4)cc3OC)nc2N1C1CCCC1", "tested on": "Protein polybromo-1, BD2 (PBRM1, Homo sapiens, UniProt Q86U86)", "test": "thermal stabilisation, thermal shift", "setting": "10 µM", "endpoint": "ΔTm", "result": "0.2 ± 0.37 °C"}
{"Structure (SMILES)": "N#Cc1ccc(-c2csc(CNC(=O)C34CC(CN(C(=O)COCCF)C3)C4)n2)cc1", "test system": "human, both sexes, cryopreserved hepatocytes", "setting": "0.5 µM", "endpoint": "CLint scaled", "result": "5.5 mL/min/kg"}
{"Structure (SMILES)": "Cc1ccc(S(=O)(=O)Nc2c(N3CCC(NC(=O)Nc4ccc(Cl)c(F)c4)CC3)c(=O)c2=O)cc1", "tested on": "Ephx2 (Mus musculus, UniProt P34914)", "endpoint": "IC50", "result": "0.59 ± 0.047 µM"}
{"note": "Repeated from above (set 1):"}
{"cell line": "MCF7", "CC50 [µM]": "> 100"}
